Measurements of several laboratories.
Several values in a cell are separate wells, animals, samples, runs or records.
UniProt A2AJ88, sequence (whole entry, looked up): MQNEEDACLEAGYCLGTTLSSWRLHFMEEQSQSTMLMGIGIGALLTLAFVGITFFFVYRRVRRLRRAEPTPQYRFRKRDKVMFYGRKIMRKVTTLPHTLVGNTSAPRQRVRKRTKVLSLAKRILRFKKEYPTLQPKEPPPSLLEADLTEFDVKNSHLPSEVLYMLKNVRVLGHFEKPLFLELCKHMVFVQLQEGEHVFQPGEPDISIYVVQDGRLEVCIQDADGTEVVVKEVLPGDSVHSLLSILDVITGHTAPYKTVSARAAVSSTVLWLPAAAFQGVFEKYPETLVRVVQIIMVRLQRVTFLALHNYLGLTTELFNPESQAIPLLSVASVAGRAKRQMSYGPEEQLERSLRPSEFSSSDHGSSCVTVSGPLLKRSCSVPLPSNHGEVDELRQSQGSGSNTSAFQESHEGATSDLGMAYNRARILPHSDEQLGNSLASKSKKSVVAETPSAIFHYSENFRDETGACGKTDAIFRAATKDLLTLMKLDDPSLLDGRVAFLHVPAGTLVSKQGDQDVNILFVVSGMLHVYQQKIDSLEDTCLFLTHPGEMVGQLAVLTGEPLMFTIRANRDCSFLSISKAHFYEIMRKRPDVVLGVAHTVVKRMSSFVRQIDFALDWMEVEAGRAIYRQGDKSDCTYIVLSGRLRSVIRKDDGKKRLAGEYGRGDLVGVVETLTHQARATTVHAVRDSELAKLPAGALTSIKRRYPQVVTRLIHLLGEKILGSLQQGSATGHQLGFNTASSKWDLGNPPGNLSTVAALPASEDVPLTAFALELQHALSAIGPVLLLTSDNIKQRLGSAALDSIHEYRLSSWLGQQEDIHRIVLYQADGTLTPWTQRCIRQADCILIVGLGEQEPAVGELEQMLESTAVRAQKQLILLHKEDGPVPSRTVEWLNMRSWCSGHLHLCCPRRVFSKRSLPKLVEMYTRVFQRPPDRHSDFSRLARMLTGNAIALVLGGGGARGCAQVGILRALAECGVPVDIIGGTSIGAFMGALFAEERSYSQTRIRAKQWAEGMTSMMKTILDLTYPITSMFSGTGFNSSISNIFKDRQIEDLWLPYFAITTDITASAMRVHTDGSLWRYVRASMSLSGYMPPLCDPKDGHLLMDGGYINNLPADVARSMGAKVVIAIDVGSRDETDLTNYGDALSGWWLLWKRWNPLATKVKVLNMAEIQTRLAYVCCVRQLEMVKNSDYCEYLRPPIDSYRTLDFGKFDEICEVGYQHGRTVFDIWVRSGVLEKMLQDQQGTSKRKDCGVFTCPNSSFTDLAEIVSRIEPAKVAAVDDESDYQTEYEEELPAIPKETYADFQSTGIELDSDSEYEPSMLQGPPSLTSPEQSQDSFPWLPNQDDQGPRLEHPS
UniProt Q9UM07, sequence (whole entry, looked up): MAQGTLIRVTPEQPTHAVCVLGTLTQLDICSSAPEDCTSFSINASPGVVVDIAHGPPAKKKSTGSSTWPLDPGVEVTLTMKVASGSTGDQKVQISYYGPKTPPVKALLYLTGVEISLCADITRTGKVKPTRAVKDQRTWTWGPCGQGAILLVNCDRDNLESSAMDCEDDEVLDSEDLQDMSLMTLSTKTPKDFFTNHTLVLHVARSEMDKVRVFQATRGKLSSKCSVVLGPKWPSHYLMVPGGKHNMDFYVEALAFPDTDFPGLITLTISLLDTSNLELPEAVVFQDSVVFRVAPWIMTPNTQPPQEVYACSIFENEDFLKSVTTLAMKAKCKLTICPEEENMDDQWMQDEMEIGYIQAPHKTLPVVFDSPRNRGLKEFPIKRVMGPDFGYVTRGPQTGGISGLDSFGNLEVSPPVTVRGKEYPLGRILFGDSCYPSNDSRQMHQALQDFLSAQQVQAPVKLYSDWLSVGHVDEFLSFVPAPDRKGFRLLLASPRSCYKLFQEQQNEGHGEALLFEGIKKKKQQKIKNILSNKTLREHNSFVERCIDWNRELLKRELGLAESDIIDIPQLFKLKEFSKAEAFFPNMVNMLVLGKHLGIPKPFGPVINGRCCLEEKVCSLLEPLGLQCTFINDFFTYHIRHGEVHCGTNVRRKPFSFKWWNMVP
UniProt Q96L34, sequence (whole entry, looked up): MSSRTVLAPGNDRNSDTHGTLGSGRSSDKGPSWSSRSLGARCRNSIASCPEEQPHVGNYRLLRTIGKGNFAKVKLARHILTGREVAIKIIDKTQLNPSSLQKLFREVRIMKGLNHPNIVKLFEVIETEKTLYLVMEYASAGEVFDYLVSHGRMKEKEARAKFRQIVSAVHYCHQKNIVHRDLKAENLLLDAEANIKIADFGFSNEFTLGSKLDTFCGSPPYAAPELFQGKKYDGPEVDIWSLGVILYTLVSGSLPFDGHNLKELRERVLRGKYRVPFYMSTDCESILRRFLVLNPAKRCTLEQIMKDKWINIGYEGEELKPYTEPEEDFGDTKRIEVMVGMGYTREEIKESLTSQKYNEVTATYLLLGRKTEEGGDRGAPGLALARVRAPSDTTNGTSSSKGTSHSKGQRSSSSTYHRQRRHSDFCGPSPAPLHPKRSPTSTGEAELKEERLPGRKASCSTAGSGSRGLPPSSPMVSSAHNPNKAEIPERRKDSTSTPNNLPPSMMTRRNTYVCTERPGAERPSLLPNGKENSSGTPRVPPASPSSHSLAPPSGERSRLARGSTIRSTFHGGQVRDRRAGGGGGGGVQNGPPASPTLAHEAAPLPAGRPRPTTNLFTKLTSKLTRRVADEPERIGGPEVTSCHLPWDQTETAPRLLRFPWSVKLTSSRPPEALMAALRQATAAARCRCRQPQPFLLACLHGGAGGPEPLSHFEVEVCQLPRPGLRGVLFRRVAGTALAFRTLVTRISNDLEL
UniProt Q99720, sequence (whole entry, looked up): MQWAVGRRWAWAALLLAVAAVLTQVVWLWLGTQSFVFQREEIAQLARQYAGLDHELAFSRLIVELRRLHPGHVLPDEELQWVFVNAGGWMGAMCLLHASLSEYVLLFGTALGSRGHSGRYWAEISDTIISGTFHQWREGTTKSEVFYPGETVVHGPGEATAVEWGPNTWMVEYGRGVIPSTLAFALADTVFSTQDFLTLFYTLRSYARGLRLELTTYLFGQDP
UniProt P0A988, sequence (whole entry, unmodified, looked up): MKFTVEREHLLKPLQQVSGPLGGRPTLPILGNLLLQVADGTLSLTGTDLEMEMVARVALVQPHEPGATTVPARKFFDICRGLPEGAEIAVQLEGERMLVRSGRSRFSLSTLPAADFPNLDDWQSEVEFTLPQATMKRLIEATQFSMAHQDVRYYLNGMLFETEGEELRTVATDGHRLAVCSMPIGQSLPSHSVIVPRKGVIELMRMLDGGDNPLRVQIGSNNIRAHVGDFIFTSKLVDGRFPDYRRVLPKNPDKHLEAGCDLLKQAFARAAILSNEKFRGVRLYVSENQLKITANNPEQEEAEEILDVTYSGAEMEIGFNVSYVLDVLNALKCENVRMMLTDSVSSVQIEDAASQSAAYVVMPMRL
UniProt Q63531, sequence (whole entry, looked up): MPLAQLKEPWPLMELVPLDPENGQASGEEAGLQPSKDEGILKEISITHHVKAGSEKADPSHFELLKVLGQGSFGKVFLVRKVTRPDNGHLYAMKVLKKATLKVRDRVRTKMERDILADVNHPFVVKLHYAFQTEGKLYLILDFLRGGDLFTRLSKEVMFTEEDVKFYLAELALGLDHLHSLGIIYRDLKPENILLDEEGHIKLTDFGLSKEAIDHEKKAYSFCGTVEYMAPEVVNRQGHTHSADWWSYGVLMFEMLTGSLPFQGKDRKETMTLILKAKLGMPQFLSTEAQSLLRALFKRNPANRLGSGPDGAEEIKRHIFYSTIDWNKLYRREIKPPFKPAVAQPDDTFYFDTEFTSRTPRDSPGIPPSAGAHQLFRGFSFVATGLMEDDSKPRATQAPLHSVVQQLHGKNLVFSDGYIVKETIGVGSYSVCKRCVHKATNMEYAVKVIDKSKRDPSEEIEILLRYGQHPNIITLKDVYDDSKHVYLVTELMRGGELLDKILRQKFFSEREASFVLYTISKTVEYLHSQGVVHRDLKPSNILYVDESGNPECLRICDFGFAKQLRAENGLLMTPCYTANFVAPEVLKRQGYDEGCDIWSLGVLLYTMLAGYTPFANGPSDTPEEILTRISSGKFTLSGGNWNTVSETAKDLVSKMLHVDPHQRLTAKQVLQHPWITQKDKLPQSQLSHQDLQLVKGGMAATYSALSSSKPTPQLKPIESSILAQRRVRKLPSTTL
UniProt P36897, sequence (whole entry, looked up): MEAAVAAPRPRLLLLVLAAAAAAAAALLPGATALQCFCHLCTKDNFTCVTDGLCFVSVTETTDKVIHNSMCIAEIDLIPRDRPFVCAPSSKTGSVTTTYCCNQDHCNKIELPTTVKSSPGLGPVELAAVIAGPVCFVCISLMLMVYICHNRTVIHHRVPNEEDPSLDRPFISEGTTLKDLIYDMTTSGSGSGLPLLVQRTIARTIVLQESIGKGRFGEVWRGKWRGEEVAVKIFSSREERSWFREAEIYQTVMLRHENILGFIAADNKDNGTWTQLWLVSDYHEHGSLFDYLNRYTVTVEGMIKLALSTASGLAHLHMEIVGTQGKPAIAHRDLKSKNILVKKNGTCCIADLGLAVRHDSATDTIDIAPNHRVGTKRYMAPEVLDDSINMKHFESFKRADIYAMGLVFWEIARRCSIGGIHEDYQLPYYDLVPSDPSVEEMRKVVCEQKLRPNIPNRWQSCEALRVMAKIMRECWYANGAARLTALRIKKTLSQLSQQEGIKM
UniProt P0AC13, sequence (whole entry, looked up): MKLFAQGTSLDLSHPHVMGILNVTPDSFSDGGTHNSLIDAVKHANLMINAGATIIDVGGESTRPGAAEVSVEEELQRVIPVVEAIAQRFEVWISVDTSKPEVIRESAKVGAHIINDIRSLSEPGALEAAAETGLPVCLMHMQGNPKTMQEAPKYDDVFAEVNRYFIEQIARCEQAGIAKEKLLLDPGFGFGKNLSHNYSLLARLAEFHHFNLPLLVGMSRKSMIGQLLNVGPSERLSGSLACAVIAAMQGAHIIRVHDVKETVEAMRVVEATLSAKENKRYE

| Structure (SMILES) | target | assay | system | conditions | scale | measurement | result |
| --- | --- | --- | --- | --- | --- | --- | --- |
| CN(C)[C@H]1C[C@@]23CC[C@@]4(O2)C(=CC[C@]2(C)[C@@H](c5ccc6ccncc6c5)CC[C@H]24)C=C3[C@@H](O)[C@@H]1O | MAP/microtubule affinity-regulating kinase 4 (MARK4, Homo sapiens, UniProt Q96L34) | ATP probe labelling, inhibitor, KiNativ profiling |  | 1 µM |  | inhibition | -3.9% |
| CCOC(=O)[C@@H]1Cc2c(cc([N+](=O)[O-])cc2[N+](=O)[O-])[C@H](O)[C@]12C(=O)Nc1ccc(Br)cc12 | TGF-beta receptor type-1 (TGFBR1, Homo sapiens, UniProt P36897) | binding, competition with immobilised ligand |  | 0.1 µM |  | remaining binding | 100% |
| CN1CC(=O)N[C@H](CC(=O)O)C(=O)N2CCCC[C@@H]2C(=O)N[C@@H](Cc2ccc3ccccc3c2)C(=O)N[C@@H](CCCNC(=N)N)C(=O)N[C@@H](CCCNC(=N)N)C(=O)N[C@H](Cc2ccccc2)C(=O)N[C@H]2CNC(=O)c3cc(cc(c3)C(=O)N3CCC[C@H]3C1=O)C(=O)NC[C@@H](C(=O)N[C@@H](CCCCNC(=S)Nc1ccc3c(c1)C(=O)OC31c3ccc(O)cc3Oc3cc(O)ccc31)C(N)=O)NC(=O)[C@H](CCCNC(=N)N)NC(=O)[C@H](CCCNC(=N)N)NC(=O)[C@H](CCCNC(=N)N)NC(=O)[C@H](CCCNC(=N)N)NC(=O)[C@H](Cc1ccc3ccccc3c1)NC(=O)[C@H](Cc1ccccc1)NC2=O | Peptidyl-prolyl cis-trans isomerase NIMA-interacting 1 (PIN1, Homo sapiens, UniProt Q13526) | fluorescence anisotropy |  | concentration not given | reference: parent peptide | binding affinity improvement | ~2 fold |
| OC1Cc2ccccc2CC1N1CCC2(C=Cc3cc(Br)ccc32)CC1 (racemic) | Sigma non-opioid intracellular receptor 1 (SIGMAR1, Homo sapiens, UniProt Q99720) |  | rat liver (sigma2), human sigma1 |  | reference: Ki sigma2 over Ki sigma1 | selectivity ratio | 290 |
| CN(C)CCCSC(=S)N1CCN(C(=O)/C=C/c2coc3ccccc3c2=O)CC1 | Nucleoprotein (N, Tomato spotted wilt virus, UniProt P25999, R94A) | binding, microscale thermophoresis |  | 0.4883 µM | dose series | MST response | 842 a.u. |
| CC(C)[C@H]1NC(=O)C[C@H]2/C=C/CCSSC[C@@H](NC1=O)C(=O)N[C@H](Cc1cccc3ccccc13)C(=O)NCC(=O)O2 | Ribosomal protein S6 kinase beta-2 (RPS6KB2, Homo sapiens, UniProt Q9UBS0) | enzyme activity, inhibitor |  | 10 µM |  | inhibition | 4.1% |
| Cn1nc(CCN)c(=O)c2c(=O)[nH]c(N)nc21 | Dihydropteroate synthase (folP, Bacteria, UniProt P0AC13) | CETSA HiBiT | Escherichia coli, cell lysate | concentration not given | reference: DMSO | melting temperature shift | 10.6 °C |
| N[C@H](C(=O)N1CCCC1)C1CCN(c2nccc3c(-c4ncc(Cl)cc4Cl)cccc23)CC1 | Protein-arginine deiminase type-4 (PADI4, Homo sapiens, UniProt Q9UM07) | thermal shift |  | 9.494 µM |  | melting temperature | 64.5 °C and 65 °C |
| Fc1ccc2[nH]c(NCCCNCc3cc(Cl)cc(Cl)c3)nc2n1 | Methionine--tRNA ligase, mitochondrial (MARS2, Homo sapiens, UniProt Q96GW9) | enzyme activity |  |  | reference: human IC50 over T. brucei IC50 | selectivity ratio | > 2 |
| CC(C)CC(O)(CC(C)C)c1cn(C(=O)N2CCCC2)nn1 | Patatin-like phospholipase domain-containing protein 7 (Pnpla7, Mus musculus, UniProt A2AJ88) | probe labelling, inhibitor, measured: Pnpla7 | mouse, brain | i.p., 0.8 mg/kg, 4 h, single peptide | reference: treated over vehicle mice, lower = stronger inhibition | activity ratio-of-ratios | 1.9 and 1.78 |
| C=CC(=O)NC[C@H](NC(=O)[C@H](CC1CCCCC1)NC(=O)[C@H](CCC(N)=O)NC(C)=O)C(=O)N[C@@H](CC(C)C)C(=O)N[C@@H](Cc1ccccc1)C(=O)O | Beta sliding clamp (Escherichia coli, UniProt P0A988, H175G) | isothermal titration calorimetry |  | 25 °C |  | ΔH | -11.6 kcal/mol |
| O=C(CCc1ccc(Br)cc1)N[C@H]1CCOC1=O | Transcriptional activator protein LasR (lasR, Pseudomonas aeruginosa, UniProt P25084) | reporter gene, antagonist |  |  | reference: IC50 PAO-JP2 over E. coli JLD271 | potency ratio | 75 |
| CS(C)(=O)=Nc1ccc(-c2ccc(-c3nc4cc(O[C@@H]5CO[C@H]6[C@@H]5OC[C@H]6O)[nH]c4cc3F)cc2)cc1 | Eukaryotic elongation factor 2 kinase (EEF2K, Homo sapiens, UniProt O00418) | enzyme activity, inhibitor |  | 10 µM |  | inhibition | -5% |
| O=C1NC(=O)c2c1c1cc(F)c[n+]3c1c1c2c2cc(O)ccc2[n]1[Ru-4]312([N]=C=S)[S+]3CC[S+]1CC[S+]2CC3 (centres unmarked) | Ribosomal protein S6 kinase alpha-1 (Rps6ka1, Rattus norvegicus, UniProt Q63531) | enzyme activity |  | 100 nM, rat enzyme, together with: 10 µM ATP | reference: untreated | remaining activity | 5% |

For quick reference, copied from above:
| Structure (SMILES) | target | assay | system | conditions | scale | measurement | result |
| --- | --- | --- | --- | --- | --- | --- | --- |
| CN(C)[C@H]1C[C@@]23CC[C@@]4(O2)C(=CC[C@]2(C)[C@@H](c5ccc6ccncc6c5)CC[C@H]24)C=C3[C@@H](O)[C@@H]1O | MAP/microtubule affinity-regulating kinase 4 (MARK4, Homo sapiens, UniProt Q96L34) | ATP probe labelling, inhibitor, KiNativ profiling |  | 1 µM |  | inhibition | -3.9% |
| CCOC(=O)[C@@H]1Cc2c(cc([N+](=O)[O-])cc2[N+](=O)[O-])[C@H](O)[C@]12C(=O)Nc1ccc(Br)cc12 | TGF-beta receptor type-1 (TGFBR1, Homo sapiens, UniProt P36897) | binding, competition with immobilised ligand |  | 0.1 µM |  | remaining binding | 100% |
